Assay results collected from several papers.
Numbered parts are unrelated; each lists some results of a single study. Positions count from the first letter of the parent shown.

Study 1 — method: aptamer microarray, sandwich; molecule type: DNA with 2'F-ANA; sample: in vitro; tested at: 200 nM; added: Cy3 exosite-II aptamer, 400 nM; reading: higher = stronger binding; oligonucleotide: GGTTGGTGTGGTTGG
Target: Prothrombin, mature alpha-thrombin (F2, Homo sapiens, UniProt P00734)
Setting: whole 15-mer aptamer, many near background
| Modification | mean fluorescence intensity [a.u.] |
| --- | --- |
| 2'F-ANA at 2 5 7 10 11 12 13 14 | 45.3 |
| 2'F-ANA at 2 3 4 6 9 12 | 771 |
| 2'F-ANA at 1 4 6 9 10 12 14 | 47.8 |
| 2'F-ANA at 1 2 3 10 12 15 | 97.1 |
| 2'F-ANA at 3 4 5 10 11 12 13 15 | 53.6 |
| 2'F-ANA at 6 10 11 12 13 15 | 161 |
| 2'F-ANA at 1 4 5 7 8 10 13 | 56.4 |
| 2'F-ANA at 1 4 5 7 8 9 10 11 15 | 46.4 |
| 2'F-ANA at 1 4 5 6 7 9 10 11 14 15 | 52.9 |
| 2'F-ANA at 3 5 6 9 10 11 12 13 14 15 | 63.6 |
| 2'F-ANA at 2 3 4 5 6 7 9 12 13 15 | 84.8 |
| 2'F-ANA at 2 3 5 8 12 13 14 | 56.4 |
| 2'F-ANA at 2 4 6 7 8 9 10 11 14 15 | 63.7 |
| 2'F-ANA at 3 9 13 14 | 560 |
| 2'F-ANA at 1 3 7 9 10 13 14 15 | 55.9 |
| 2'F-ANA at 1 2 3 8 11 12 13 14 15 | 96 |
| 2'F-ANA at 1 5 10 12 13 14 15 | 47.1 |

Study 2 — method: RNA Bind-n-Seq; molecule type: RNA; sample: in vitro; tested at: 365 nM; baseline: no-protein control; reading: higher = stronger binding
Target: RNA binding protein fox-1 homolog 2, RRM domain, GST-SBP tag (RBFOX2, Homo sapiens, UniProt O43251-10, residues 100-194)
Setting: natural RNA segment, single round, ends assumed
Shared flanks, not repeated: GGGAGUUCUACAGUCCGACGAUC … UGGAAUUCUCGGGUGCCAA
Construct (chain): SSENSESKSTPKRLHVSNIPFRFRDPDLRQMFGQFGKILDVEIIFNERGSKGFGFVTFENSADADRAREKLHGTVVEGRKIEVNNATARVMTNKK
| Oligonucleotide | RBNS enrichment (R) |
| --- | --- |
| CCUGUGAUCUUCUGGAAGCUCCAAAGCUGAAACCCUUCAGCUUUGCAACUAAAAAUAUUACAGUUUAAUAAUCAAUUAAACCAACCAACAAUAAGCACUACACAUCUGCC | 0.877 |
| CACAACUGUAUGUGACCAAAAGACACAUUUUGUGUCACUCCUGCUUUCCUGUCAGCUGUUGACACCUUGGUAGGAGCUCUCAUUAUUACAUUCUCCAUUCUCCAUUUCCC | 0.572 |
| ACUCACACUUCUAUAUUUGCACUGGGGAAGACAUAUUCCUAAAAAUGGAUACAUAACAAAGAAUUCUCUGUGACUUAUUAAGAAUGACUGUGUCUGCCCAGUAACCUGUU | 0.445 |
| AAGCAGAUGACAGAAAUGGUUUCAGCAGUUUGUGCUGUAACCAUGCCUAGAGCAAGAAACCUGCUCAGUUUUAUAAGCUCCCUUCCCAACCAAAAUGGCUUAUCGUCAUU | 0.246 |
| GCCAAGGGAGGUGCCAAUGCUGGGCUUACCAUAGUCCAGGAAGAAUAUGAGGACUAGGGGCACACAAGAGUCUAGCUUCGUCUCCAGGACUCCCUUGGCUCAGAGUGUGG | 0.669 |
| CAAGCCCCUUGAAGGUUUGGAUGGGAUGAGAUGGACAGUUACUGUAAUGAAGGACAAAGGGAACCAGGGACGGGGAGGAGGCAUAGUCUGUGGUGACAGACAAUGCUAAG | 0.767 |
| CGCUGUGUCCAGAUGUUGGAAUGGUUUGAGCAUCAUGGUCACAUUUGCAUUGUUUUUGAACUAUUGGGACUUAGUACUUACGACUUCAUUAAAGAAAAUGGUUUUCUACC | 5.49 |
| AAGUUAAAAUUAAGUAUAUACUUUAGGAAGUUACCAAUAACUUCCAUCAAAGCAGAGUAGGAUAUAUGGUAACAUUAAUUUUCGGUCAUUUCAAAUGAGGUAUAUUUCUU | 0.33 |
| UGUGAUGGCUCUUUAAGAAUUGGGUUUGACCAAAGUUCUCUUUGUUUUCAGGGAAAACUAUAUAAAAGCUUUCUGAGCCACAGCCUUUUAAAAGGGGAAAGGCUAAUAGU | 0.462 |
| AGAAAAGGUUGGAAGCUUUAUACUAAAUGGGCUCCUUCAUGGUGACGCCCCGUCAACCACAAUCAAGAACUGAGGCCUGAGGCUGGUUGUACAAUGCCCACGCCUGCCUG | 0.631 |
| GUUAAUUUCUGUCAAACAGUAGGUGACAAAUGGCCGAUCUUAUCAGUGUCUCUUGAGCAUCCCUUCGCGCCCCCCACCCUCCACUGCCGUCCCUCCCCAGAUGGGGCGUU | 0.354 |
| CUUGCGUUGAUACUUUGCCCCAGAAAGGCCUGGGAUUCAUUCUGGUUCUUAUCAGGGUGUGUCCACACUCUGCUCACAGGUGGAUCCACGGCUUUCCAGUGCGGAGAGUC | 0.265 |

Study 3 — method: DHFR PCA, deep sequencing; sample: yeast; added: (+)-ABA 58 µM; baseline: wild-type fitted maximum; reading: higher = stronger binding
Target: ABI1, truncated, D143A, DHFR fusion (Arabidopsis thaliana)
Setting: methotrexate growth selection, single substitutions
Starting sequence: PYL1, truncated, DHFR fusion (Arabidopsis thaliana); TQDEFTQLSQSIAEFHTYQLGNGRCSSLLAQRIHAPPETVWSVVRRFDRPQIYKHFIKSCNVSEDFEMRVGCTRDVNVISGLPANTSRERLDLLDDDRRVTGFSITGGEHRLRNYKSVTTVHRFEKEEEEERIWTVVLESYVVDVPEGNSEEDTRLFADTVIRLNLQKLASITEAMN; partner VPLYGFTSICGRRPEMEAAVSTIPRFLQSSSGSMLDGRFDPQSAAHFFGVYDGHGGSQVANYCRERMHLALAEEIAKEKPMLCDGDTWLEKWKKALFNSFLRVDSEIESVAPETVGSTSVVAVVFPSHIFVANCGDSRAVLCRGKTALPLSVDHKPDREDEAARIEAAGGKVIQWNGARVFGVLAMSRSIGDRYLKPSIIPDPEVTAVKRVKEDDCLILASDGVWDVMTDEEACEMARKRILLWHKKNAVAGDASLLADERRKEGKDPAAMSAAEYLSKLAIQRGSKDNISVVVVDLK
| Change | relative binding score [%] |
| --- | --- |
| D48E | 71.9 |
| I33T | 18.7 |
| R49L | 64.8 |
| K126W | 73.6 |
| V100R | 49.2 |
| Q19V | 90.2 |
| V62L | 82.6 |
| V121E | 0.0443 |
| R123N | 89.5 |
| G81Q | 7.5 |
| E127Q | 95 |
| K116T | 84.6 |
| M68Q | 76.5 |
| I133N | 108 |
| I162A | 18.8 |
| T17I | 55.1 |
| W41Q | -18.8 |
| E129M | 88 |
| L8F | 91.3 |

Study 4 — target: CCNA2, cyclin fold, Cln2 fusion (human); method: yeast growth competition, sequencing; sample: yeast; setting: strong parent motif; baseline: not given; reading: higher = stronger binding
Starting sequence: RBL1 docking peptide (human); GSAKRRLFGEDPP
| Change | normalised enrichment score |
| --- | --- |
| GSADRRLFGEDPP [K4D] | -0.234 |
| GSAKRRLFGENPP [D11N] | 5.77 |
| GSAKRRLFGEDHP [P12H] | 5.7 |
| VSAKRRLFGEDPP [G1V] | 6.94 |
| GSAVRRLFGEDPP [K4V] | 4.4 |
| GDAKRRLFGEDPP [S2D] | 3.35 |
| GSAKRRLQGEDPP [F8Q] | 0.359 |
| GSFKRRLFGEDPP [A3F] | 4.41 |
| GSAKRRLFGEDIP [P12I] | 5.48 |
| GSAKRWLFGEDPP [R6W] | 0.0791 |
| GSAKNRLFGEDPP [R5N] | 0.677 |
| GSAKRRLFGEDRP [P12R] | 5.81 |
| ISAKRRLFGEDPP [G1I] | 6.74 |
| WSAKRRLFGEDPP [G1W] | 5.96 |
| GSAKQRLFGEDPP [R5Q] | 1.73 |
| GSAKRRLFGEDYP [P12Y] | 5.96 |
| GSDKRRLFGEDPP [A3D] | -0.398 |

Study 5 — method: RNA Bind-n-Seq; molecule type: RNA; sample: in vitro; tested at: 200 nM; setting: whole 134-nt RNA, ends assumed; added: 150 mM KCl; baseline: input library; reading: higher = stronger binding
Target: Fragile X messenger ribonucleoprotein 1, C-terminal low-complexity region (Fmr1, Mus musculus, UniProt P35922)
Shared flanks, not repeated: GGGAGUUCUACAGUCCGACGAUC … UGGAAUUCUCGGGUGUCAAGG
| Oligonucleotide | log2 enrichment |
| --- | --- |
| GCAGGAAGUAAAAACCAAUGGAAAUGCUUCGGAUAGUGGCAGGGGUGGGGGUUGCUAAGGAAAGGGUGGGAUGGGAGUGGGUAAAGAGUU | 0.652 |
| UGUGCUACACAUCGUAUGUACCGAAUCGGGGAAAAAAAGGGGAAAAAAAGGGAAAAAAAGGGAAAGUAUUAUGUUACGCCGUUCGGAUCU | -0.299 |
| UUCAAAACAGAAUCCUUCCAGUCCUCUUCAGCGUUUAAUUCCAGGCUCAAACUUGGACAGUGAACCCAGAAUUCAAACAGAUAUACUAAA | 0.451 |
| CAAGUCCUGUGCUACACAUCGUAUGUACCGAAUCGGUUUGGGUUUGGGUUUGGGGAAAGUAUUAUGUUACGCCGUUCGGAUCUGCACUUC | -0.0314 |
| ACCAUGCAGGUGGGCAUCUUUGGGAAGUGGGGCAAGGUGGGGAUAGGGAGGGGGGUAACACUUUGGGAACAGGUGGUCCCAGGUCGUUUC | 0.787 |
| AAGUCCUGUGCUACACAUCGUAUGUACCGAAUCGGAAAAAAAGGAAAAAGGUUUGGAAAGUAUUAUGUUACGCCGUUCGGAUCUGCACUU | -1.44 |
| UGUGAGAUUAAACUUGCCCCCAAACGAUCUCGUUUGGAGACUAGAGCUGGAGAAGAAGAUGAAGGAGAAGAGGAUUCUGAUUCUGAUUAU | -0.828 |
| CACAGACAACACGCACCCACACAGACACAGAGGGAAGGGGUUGGGAUGGGGACAGGGUGCACAGCAGGGCGGGGUAGGACUCCAGCCCCU | 1.11 |
| CACAGACAACACGCACCCACACAGACACAGAGGGAAGGGGAAAGGAUGGGGACAGGGUGCACAGCAGGGCGGGGUAGGACCCCAGCCCCU | 1.05 |
| AGUCCUGUGCUACACAUCGUAUGUACCGAAUCGGUUUUUGGUUUUUGGGGUUUUUGGGAAAGUAUUAUGUUACGCCGUUCGGAUCUGCAC | -0.428 |
| UAACUUUAGAGGAGGAUCUGAUGGAUAUGGCAGUGGACGUGGAUUUGGGGAUGGCUAUAAUGGGUAUGGAGGAGGACUUGGAGGUGGCAA | 0.098 |
| UCCUGUGCUACACAUCGUAUGUACCGAAUCGGGAAAAAAAGGGUUUUUUUGGGUUUGGGAAAGUAUUAUGUUACGCCGUUCGGAUCUGCA | -0.337 |
| GCAGGAAGUAAAAACAAAUGGAAAUGCUUCGGAUAGUGGCAGGGGUGGGAGUUGCUAAGGAAAGGGUGGGAUGGGAGUGGGUAAAGAGUU | 0.0704 |
| CCUGUGCUACACAUCGUAUGUACCGAAUCGGGGUUUUUUUGGGGUUUUUUUGGGGAGGGGAAAGUAUUAUGUUACGCCGUUCGGAUCUGC | 0.439 |

Some of these lines once more (study 5):
| Oligonucleotide | log2 enrichment |
| --- | --- |
| UUCAAAACAGAAUCCUUCCAGUCCUCUUCAGCGUUUAAUUCCAGGCUCAAACUUGGACAGUGAACCCAGAAUUCAAACAGAUAUACUAAA | 0.451 |
| CAAGUCCUGUGCUACACAUCGUAUGUACCGAAUCGGUUUGGGUUUGGGUUUGGGGAAAGUAUUAUGUUACGCCGUUCGGAUCUGCACUUC | -0.0314 |
| ACCAUGCAGGUGGGCAUCUUUGGGAAGUGGGGCAAGGUGGGGAUAGGGAGGGGGGUAACACUUUGGGAACAGGUGGUCCCAGGUCGUUUC | 0.787 |
| AAGUCCUGUGCUACACAUCGUAUGUACCGAAUCGGAAAAAAAGGAAAAAGGUUUGGAAAGUAUUAUGUUACGCCGUUCGGAUCUGCACUU | -1.44 |
| UGUGAGAUUAAACUUGCCCCCAAACGAUCUCGUUUGGAGACUAGAGCUGGAGAAGAAGAUGAAGGAGAAGAGGAUUCUGAUUCUGAUUAU | -0.828 |
| CACAGACAACACGCACCCACACAGACACAGAGGGAAGGGGUUGGGAUGGGGACAGGGUGCACAGCAGGGCGGGGUAGGACUCCAGCCCCU | 1.11 |
| CACAGACAACACGCACCCACACAGACACAGAGGGAAGGGGAAAGGAUGGGGACAGGGUGCACAGCAGGGCGGGGUAGGACCCCAGCCCCU | 1.05 |
| AGUCCUGUGCUACACAUCGUAUGUACCGAAUCGGUUUUUGGUUUUUGGGGUUUUUGGGAAAGUAUUAUGUUACGCCGUUCGGAUCUGCAC | -0.428 |
| UAACUUUAGAGGAGGAUCUGAUGGAUAUGGCAGUGGACGUGGAUUUGGGGAUGGCUAUAAUGGGUAUGGAGGAGGACUUGGAGGUGGCAA | 0.098 |
| UCCUGUGCUACACAUCGUAUGUACCGAAUCGGGAAAAAAAGGGUUUUUUUGGGUUUGGGAAAGUAUUAUGUUACGCCGUUCGGAUCUGCA | -0.337 |
| GCAGGAAGUAAAAACAAAUGGAAAUGCUUCGGAUAGUGGCAGGGGUGGGAGUUGCUAAGGAAAGGGUGGGAUGGGAGUGGGUAAAGAGUU | 0.0704 |
